Experimental data collected from several papers.
Each line is one published result; not all experiments were run side by side. Numbers after ± are the reported error.
Cell line: MDA-MB-231

Cc1cc(C)c([N+]#[C][Pt-]([Cl])([Cl])=[C](Nc2ccc(CN[C](NC(C)(C)C)=[Au][Cl])cc2)Nc2c(C)cc(C)cc2C)c(C)c1  IC50 (cell growth or viability): > 100 µM
COc1ccccc1/C=N/NC(=O)c1cc2cc(Nc3nccc(-c4cccnc4)n3)ccc2[nH]1  IC50 (cell growth or viability, MTT; 48 h): 8.88 µM
Clc1ccc2ccc3[n+](c2c1)[Ir-3]12([c]4ccccc4-3)([c]3ccccc3-c3ccc4ccc(Cl)cc4[n+]31)[n+]1ccccc1-c1cccc[n+]12.F[P-](F)(F)(F)(F)F  IC50 (cell growth, MTT; 72 h): 0.21 ± 0.01 µM
C#C[C@@]12OC(C)(C)O[C@@H]1CC1C3CCc4cc(Oc5no[n+]([O-])c5S(=O)(=O)c5ccccc5)ccc4C3CCC12C (stereo partly shown)  IC50 (cell growth or viability, MTT; 48 h): 0.019 µM
Cc1cc(C)c([N+]#[C][Pd-]([Cl])([Cl])=[C](Nc2cccc(CN[C](Nc3c(C(C)C)cccc3C(C)C)=[Au][Cl])c2)Nc2c(C)cc(C)cc2C)c(C)c1  IC50 (cell growth or viability): 6 µM
C=CC(OC(C)=O)c1cc(OC)cc(OC)c1 (stereo not shown)  IC50 (MTT; 24 h): > 50 µM
Cc1ccc(-n2cc(CSc3nc4ccccc4n3Cc3cn(-c4ccc(C)cc4)nn3)nn2)cc1  IC50 (cell growth or viability, MTT): 31.4 µg/mL
CN[C@@H](C)C(=O)N[C@H]1CN(C(=O)Cc2ccccc2)CC[C@H]2CC[C@@H](C(=O)NCc3ccc(C)cc3)N2C1=O  IC50 (cell growth or viability; 96 h): 0.017 µM
C[C@@H]1CC[C@@H]([C@@](O)(CNCc2cccc(F)c2)COCc2ccccc2)[C@H](OCc2ccccc2)C1  IC50 (cell growth or viability, MTT; 72 h): 4.2 µM
CCCCCCCCCCCCCCCC(=O)Oc1ccc(CO)cc1OC(=O)CCCCCCCCCCCCCCC  IC50 (cell viability, MTT; 48 h, serum-free medium): inactive
COc1ccc(/N=N/C(=S)N2CCOCC2)cc1  IC50 (cell growth or viability, resazurin; 48 h): > 50 µM
C#C[C@@]1(O)[C@H](O)CC2C3CCc4cc(Oc5no[n+]([O-])c5S(=O)(=O)c5ccccc5)ccc4C3CCC21C (stereo partly shown)  IC50 (cell growth or viability, MTT; 48 h): 0.0553 µM
CN(C)c1cc[n+](Cc2cccc(C[n+]3ccc(N(C)C)cc3)c2)cc1  IC50 (cell growth or viability, MTT; 72 h): 28.4 µM
COC(Cn1ccn(C)[c]1=[Ag][O]C(C)=O)c1ccccc1 (stereo not shown)  IC50 (cell growth or viability, MTT; 72 h): 20.9 µM
Cc1ccc(C(C)C)cc1.[Cl-].[Cl-].[Fe+2].[Ru+2].c1cc[cH-]c1.c1ccc(P(=NCc2ccccn2)(c2ccccc2)[c-]2cccc2)cc1  IC50 (cell growth or viability, MTT; 24 h): > 125 µM
CN(C)CCCO/N=C1/C=C2CCC3C(CC[C@]4(C)/C(=C/c5ccccn5)CCC34)[C@@]2(C)CC1 (stereo partly shown)  IC50 (cell growth or viability, MTT; 72 h): 44.6 µM
O=C(CNc1nc(NNC(=O)c2ccc(Nc3nc(Nc4ccc(C(=O)NNc5nc(NCC(=O)NO)nc(N6CCOCC6)n5)cc4)nc(Nc4ccc(C(=O)NNc5nc(NCC(=O)NO)nc(N6CCOCC6)n5)cc4)n3)cc2)nc(N2CCOCC2)n1)NO  IC50 (cell growth or viability, MTT; 72 h): 0.0467 µM
COc1cc(/C=C/C(=O)/C=C/c2cn(-c3ccccc3)nc2C(=O)O)cc(OC)c1OC  IC50 (cell growth; 72 h): > 25 µM
CCC(C(=O)O)C1CCC(C)C(C(C)C(O)C(C)C(=O)C(CC)C2OC3(C=CC(=O)C4(CCC(C)(C5CCC(O)(CC)C(C)O5)O4)O3)C(C)CC2C)O1 (stereo not shown)  IC50 (cell growth or viability, MTT): 12.1 µM
CN[C@@H](C)C(=O)N[C@H]1CN(C(=O)Cc2ccccc2)CC[C@H]2CC[C@@H](C(=O)NCc3ccccc3Br)N2C1=O  IC50 (cell growth or viability; 96 h): 0.667 µM
Cc1cc(C)c(N=[C](NCc2ccc(N)cc2)[AuH][Cl])c(C)c1  IC50 (cell growth or viability): > 100 µM
CCC1C=CC2CCN(C(=O)C3CCC4C=CC5(CCCN5C(=O)C(Cc5ccccc5Cl)NC(C)=O)C(=O)N43)C2C(=O)N1CC(=O)OC (stereo not shown)  IC50 (cell migration): 53 µM
O=[C]=[Re-2]1(=[C]=O)(=[C]=O)([O]S(=O)(=O)c2cccc3ccccc23)[n+]2ccc(-c3ccccc3)c3ccc4c(-c5ccccc5)cc[n+]1c4c32  IC50 (cell growth or viability, resazurin; 72 h): 1.53 µM
C[C@@H]1CC[C@@H]([C@](O)(CNCc2ccc(F)cc2)COCc2ccccc2)[C@H](OCc2ccccc2)C1  IC50 (cell growth or viability, MTT; 72 h): 15.4 µM
COC(=O)[C@H](C(C)C)N(C)C(=O)[C@@H]1CCCN1C(=O)[C@H](C)N(C)C(=O)OC(C)(C)C  IC50 (cell growth or viability, SRB): 39 µM
CN[C@@H](C)C(=O)N[C@H]1CN(C(=O)Cc2ccccc2)CC[C@H]2CC[C@@H](C(=O)NCc3ccc(-c4ccccc4)cc3)N2C1=O  IC50 (cell growth or viability; 96 h): 1.03 µM
Cc1cc(C#N)cc(C)c1Oc1cc(Nc2ccc(C#N)cn2)nc2cnccc12  IC50 (48 h): > 127 µM
Nc1ncnc2c1ncn2CCN1C(=O)/C(=N\N=C2/NC(=O)CS2)c2cc(F)ccc21  IC50 (cell growth or viability, SRB; 72 h): 191 µM
CO[C@H]1C(=O)c2ccc(O)cc2O[C@@H]1c1ccc(O)c(O)c1 (relative stereo)  IC50 (cell growth or viability, MTT; 72 h): 201 µM
O=C(CN1C(=O)NC(c2ccccc2)(c2ccccc2)C1=O)N/N=C/c1ccccc1  IC50 (cell growth or viability, resazurin; 24 h): 240 µM
COc1c(C)c(OC(=O)c2ccccc2)c(C)c(OC(=O)c2ccccc2)c1C(=O)/C=C/c1ccccc1  IC50 (cell growth or viability, SRB; 72 h): > 50 µM
O=[C]=[Re-2]1(=[C]=O)(=[C]=O)([O]C(=O)c2ccccc2Nc2cccc(C(F)(F)F)c2)[n+]2ccc(-c3ccccc3)c3ccc4c(-c5ccccc5)cc[n+]1c4c32  IC50 (cell growth or viability, resazurin; 72 h): 3.27 µM
CC(C)c1cccc(C(C)C)c1-n1c2c([n+](-c3c(C(C)C)cccc3C(C)C)[c]1[Cu-][Cl])-c1cccc3cccc-2c13  IC50 (cell growth or viability, MTT; 72 h): 4 µM
CCn1c[n+](CC)c2ccccc21  IC50 (cell growth or viability, crystal violet; 96 h): > 100 µM
COc1ccc(/C(=C(/CCn2cc(CN3C(=O)C4(OCCO4)c4cc(Br)ccc43)nn2)c2ccccc2)c2ccccc2)cc1  IC50 (cell growth or viability, MTT): > 100 µM
Brc1ccc2nc3c4ccc[n+]5c4c4c(ccc[n+]4[Ru-4]546([n+]5ccccc5-c5cccc[n+]54)[n+]4ccccc4-c4cccc[n+]46)c3nc2c1.[O-][Cl+3]([O-])([O-])O.[O-][Cl+3]([O-])([O-])O  IC50 (cell growth or viability, MTT; 72 h): > 100 µM
Cc1cc(=O)[nH]c(=O)n1CCCCCCOC(=O)C12CCC(C)C(C)C1C1=CCC3C4(C)CCC(O)C(C)(C)C4CCC3(C)C1(C)CC2 (stereo not shown)  IC50 (cell growth or viability, thymidine uptake; 24 h): ~10 µM

For quick reference, copied from above:
CN[C@@H](C)C(=O)N[C@H]1CN(C(=O)Cc2ccccc2)CC[C@H]2CC[C@@H](C(=O)NCc3ccc(C)cc3)N2C1=O  IC50 (cell growth or viability; 96 h): 0.017 µM
CCn1c[n+](CC)c2ccccc21  IC50 (cell growth or viability, crystal violet; 96 h): > 100 µM
C[C@@H]1CC[C@@H]([C@@](O)(CNCc2cccc(F)c2)COCc2ccccc2)[C@H](OCc2ccccc2)C1  IC50 (cell growth or viability, MTT; 72 h): 4.2 µM
C[C@@H]1CC[C@@H]([C@](O)(CNCc2ccc(F)cc2)COCc2ccccc2)[C@H](OCc2ccccc2)C1  IC50 (cell growth or viability, MTT; 72 h): 15.4 µM
